Results of several laboratories.
Protocols differ between the studies behind these lines. Several values in a cell are separate wells, animals, samples, runs or records. ± gives the spread as reported.
Chain of UniProt Q64663 (whole entry, unmodified, looked up): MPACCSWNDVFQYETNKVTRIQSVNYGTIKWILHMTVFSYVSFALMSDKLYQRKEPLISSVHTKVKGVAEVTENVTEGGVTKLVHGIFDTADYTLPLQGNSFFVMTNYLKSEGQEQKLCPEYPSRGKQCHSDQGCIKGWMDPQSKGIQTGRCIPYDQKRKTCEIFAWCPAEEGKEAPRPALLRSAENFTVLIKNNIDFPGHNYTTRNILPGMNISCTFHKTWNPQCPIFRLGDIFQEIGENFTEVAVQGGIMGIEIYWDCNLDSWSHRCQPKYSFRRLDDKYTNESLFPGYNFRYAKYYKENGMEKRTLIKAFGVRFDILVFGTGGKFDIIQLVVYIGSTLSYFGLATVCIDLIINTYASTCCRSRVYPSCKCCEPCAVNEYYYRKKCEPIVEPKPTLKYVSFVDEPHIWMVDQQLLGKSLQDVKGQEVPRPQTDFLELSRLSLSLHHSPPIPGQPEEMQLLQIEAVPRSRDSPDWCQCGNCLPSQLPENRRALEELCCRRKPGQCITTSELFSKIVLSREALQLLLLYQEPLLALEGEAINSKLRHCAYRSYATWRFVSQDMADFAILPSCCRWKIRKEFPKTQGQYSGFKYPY

Substance	target or system	test	test system	conditions	how to read	quantity	result
ACEQNPIYWARYADWLFTTPLLLLDLALLVDADEGT	–	ex vivo fluorescence imaging	peptide, BALB/c mice, 4T1 tumour-bearing, liver	intravenous, 5 nmol, 4 h post-injection	higher = more uptake	mean fluorescence intensity	1980 ± 27.9 a.u.
CTCATACAGT	Salmonella enterica Typhimurium	RNA-seq, refers to: udg mRNA	peptide, SL1344	5 µM, 15 min	relative to: water control	log2 fold change	1.85
11-deoxycorticosterone	CYP11B2 (human)	substrate binding, stopped-flow global kinetic fitting	purified enzyme	model, 4-state CS, linear, together with: no adrenodoxin	–	Kd	3.06 µM
QDEKVKESYV	human MAGI1-3/6 PDZ construct (MBP fusion)	automated holdup	peptide, crude extract	concentration not given, corrected by standard peak, unit not given	relative to: biotin control resin, higher = stronger binding	binding intensity	0.776
ITDFGRAKL	HLA class I histocompatibility antigen, A alpha chain, allele A*24:02 (Homo sapiens, UniProt P04439)	conformational ELISA	peptide	concentration not given	relative to: positive control peptide, direction not given	binding score	15.1%
milbemycin oxime	Saccharomyces cerevisiae	cell growth	Pdr5 deleted, Cdr1 overexpressed	2^-8.966 µg/mL, together with: fluconazole 1 µg/mL	–	OD600	1.02 and 1.01 and 1.03
GLLEWISLV	Jurkat T cells expressing 1G4 TCR	NFAT-eGFP reporter, fluorescence microscopy	peptide	concentration not given, HLA-A*02:01 NY-ESO system	–	reporter activation	0.0081%
CCT6A	–	co-immunoprecipitation	human RBC cytosol	unit not given, together with: Band 3 peptide 1-56 bait	relative to: negative control	co-IP enrichment	0
LVHYTHCGSLGV	Epstein-Barr virus	BamHI-W qPCR	peptide, B-NDG humanized mouse, EBV-infected, peripheral blood	20 mg/kg, day 28	–	EBV DNA copy number	0 copies
GLFQWTARA	Jurkat T cells expressing 1G4 TCR	NFAT-eGFP reporter, flow cytometry	peptide	concentration not given, HLA-A*02:01 NY-ESO system	–	reporter activation	0.22%
ACDDQNPWRAYLDLLFPTDTLLLDLLW	–	ex vivo fluorescence imaging	peptide, BALB/c mice, 4T1 tumour-bearing, kidney	intravenous, 5 nmol, 4 h post-injection	higher = more uptake	mean fluorescence intensity	1150 ± 327 a.u.
epoetin alfa	UT7/EPO	microarray, refers to: EGR1 mRNA (probe set 227404_s_at)	–	5 U/mL, 90 min	relative to: vehicle	mRNA level	9.7 fold
cotadutide	–	metabolomics, refers to: hepatic arginine	ob/ob mice on AMLN diet, NASH model, liver	dose not given	–	metabolite level	0.71 ± 0.14 scaled intensity
NPDALPETLV	human SCRIB PDZ3-4 tandem (MBP fusion)	automated holdup	peptide, crude extract	concentration not given, corrected by standard peak, unit not given	relative to: biotin control resin, higher = stronger binding	binding intensity	0.196
ALLQWITQV	Jurkat T cells expressing 1G4 TCR	NFAT-eGFP reporter, fluorescence microscopy	peptide	concentration not given, HLA-A*02:01 NY-ESO system	–	reporter activation	21.6%
human serum albumin	–	co-immunoprecipitation	human RBC membrane	unit not given, together with: Band 3 peptide 1-56 bait	relative to: negative control	co-IP enrichment	1.08
BzATP	P2X purinoceptor 7 (P2rx7, Rattus norvegicus, UniProt Q64663)	ion current, agonist, two-electrode voltage clamp	Xenopus laevis oocytes	0.41 µM	relative to: highest concentration response	normalized current	0.06 and 0.13 and 0.08
GLFQWVAQA	Jurkat T cells expressing 1G4 TCR	NFAT-eGFP reporter, flow cytometry	peptide	concentration not given, HLA-A*02:01 NY-ESO system	–	reporter activation	0.25%
GEMVGQARILAQATSDLVNAIKDA	vinculin head domain Vd1	complex rupture, AFM single-molecule force spectroscopy	peptide	double traces, C-terminal pulling, 800 nm/s	–	rupture force FWHM upper side	9.14 pN
CCT4	–	co-immunoprecipitation	human plasma	unit not given, together with: Band 3 peptide 1-56 bait	relative to: negative control	co-IP enrichment	0.463
KDECVIATEV	human MAGI1-2/6 PDZ construct (MBP fusion)	automated holdup	peptide, purified PDZ protein	concentration not given, unit not given	relative to: biotin control resin, higher = stronger binding	binding intensity	0.00931
insulin aspart	–	ELISA, refers to: total insulin aspart	human, type 1 diabetes, serum	subcutaneous, dose not given, least squares mean	–	AUC(0-t)	1.29 nM·h

Substance	target or system	test	test system	conditions	how to read	quantity	result
human LDL receptor	–	co-immunoprecipitation	human plasma	unit not given, together with: Band 3 peptide 1-56 bait	relative to: negative control	co-IP enrichment	0
colistin	Pseudomonas aeruginosa	–	clinical isolate RKI 46/14	–	–	MIC	≤ 1 µg/mL
GLMQWNYRA	Jurkat T cells expressing 1G4 TCR	NFAT-eGFP reporter, flow cytometry	peptide	concentration not given, HLA-A*02:01 NY-ESO system	–	reporter activation	0.24%
GSGAGICTIV	human SCRIB PDZ3-4 tandem (MBP fusion)	automated holdup	peptide, crude extract	concentration not given, uncorrected, unit not given	relative to: biotin control resin, higher = stronger binding	binding intensity	0.425
human clusterin	–	co-immunoprecipitation	human RBC membrane	no crosslinker, unit not given, together with: Band 3 peptide 1-56 bait	relative to: negative control	co-IP enrichment	0
TLAEWVPRL	Jurkat T cells expressing 1G4 TCR	NFAT-eGFP reporter, fluorescence microscopy	peptide	concentration not given, HLA-A*02:01 NY-ESO system	–	reporter activation	0.00208%
ILEAAKSIAAATSALVKAASAAQRE	vinculin head domain Vd1	complex rupture, AFM single-molecule force spectroscopy	peptide	single traces, C-terminal pulling, 800 nm/s	–	mean rupture force	49.2 pN
SVWLRKETRV	human MAGI1-3/6 PDZ construct (MBP fusion)	automated holdup	peptide, crude extract	concentration not given, corrected by standard peak, unit not given	relative to: biotin control resin, higher = stronger binding	binding intensity	0.462
ERK2	–	co-immunoprecipitation	human RBC membrane	no crosslinker, unit not given, together with: Band 3 peptide 1-56 bait	relative to: negative control	co-IP enrichment	0
Polymyxin B	Staphylococcus aureus	DiSC3(5) fluorescence	–	concentration not given, 84 min	higher = more depolarisation	membrane depolarisation	437 a.u. and 493 a.u. and 523 a.u.
GSGAGSETKM	human MAGI1-3/6 PDZ construct (MBP fusion)	surface plasmon resonance	peptide	concentration not given	higher = stronger binding	normalised SPR binding response	0 normalised RU
insulin degludec	–	–	human	subcutaneous, 0.4 IU/kg, 2 FC level, single dose, reference formulation	–	AUClast	611 ± 65 ng·h/mL
GLFQWLAGV	Jurkat T cells expressing 1G4 TCR	NFAT-eGFP reporter, flow cytometry	peptide	concentration not given, HLA-A*02:01 NY-ESO system	–	reporter activation	0.091%
TASPAKETSF	human MAGI1-3/6 PDZ construct (MBP fusion)	automated holdup	peptide, purified PDZ protein	concentration not given, unit not given	relative to: biotin control resin, higher = stronger binding	binding intensity	-0.201
CLTSTVQLIM	HLA class I histocompatibility antigen, A alpha chain, allele A*02:01 (Homo sapiens, UniProt P04439)	conformational ELISA	peptide	concentration not given	relative to: positive control peptide, direction not given	binding score	31.6%
NRVDSKETEC	human SCRIB PDZ3-4 tandem (MBP fusion)	automated holdup	peptide, crude extract	concentration not given, corrected by standard peak, unit not given	relative to: biotin control resin, higher = stronger binding	binding intensity	0.746
human HSC70	–	co-immunoprecipitation	human RBC membrane	unit not given, together with: Band 3 peptide 1-56 bait	relative to: negative control	co-IP enrichment	0
CTGTTACTCT	Salmonella enterica Typhimurium	broth microdilution	peptide, SL1344	range over 0.3-10 µM, 24 h, 37 °C, Mueller-Hinton broth	–	MIC	> 10 µM
MTVCNASQRQAHAQATAVSL	H1437 lung adenocarcinoma	phage binding output/input	peptide	–	relative to: control phage	selectivity ratio	3.4 ± 1.2
human retinal dehydrogenase 1	–	co-immunoprecipitation	human RBC cytosol	unit not given, together with: Band 3 peptide 1-56 bait	relative to: negative control	co-IP enrichment	0
GLLQWVSQV	Jurkat T cells expressing 1G4 TCR	NFAT-eGFP reporter, fluorescence microscopy	peptide	concentration not given, HLA-A*02:01 NY-ESO system	–	reporter activation	22.2%
Peginesatide	UT7/EPO	microarray, refers to: EGR1 mRNA (probe set 227404_s_at)	–	20 nM, 90 min	relative to: vehicle	mRNA level	10.4 fold

Excerpt of the above:
Substance	target or system	test	test system	conditions	how to read	quantity	result
GLMQWNYRA	Jurkat T cells expressing 1G4 TCR	NFAT-eGFP reporter, flow cytometry	peptide	concentration not given, HLA-A*02:01 NY-ESO system	–	reporter activation	0.24%
GSGAGICTIV	human SCRIB PDZ3-4 tandem (MBP fusion)	automated holdup	peptide, crude extract	concentration not given, uncorrected, unit not given	relative to: biotin control resin, higher = stronger binding	binding intensity	0.425
human clusterin	–	co-immunoprecipitation	human RBC membrane	no crosslinker, unit not given, together with: Band 3 peptide 1-56 bait	relative to: negative control	co-IP enrichment	0
TLAEWVPRL	Jurkat T cells expressing 1G4 TCR	NFAT-eGFP reporter, fluorescence microscopy	peptide	concentration not given, HLA-A*02:01 NY-ESO system	–	reporter activation	0.00208%
